Measurements of several laboratories.
4'-phosphopantetheinyl transferase PptT: 4'-phosphopantetheinyl transferase PptT (Mycobacterium tuberculosis, UniProt O33336)
UniProt O33336, sequence (whole entry, looked up): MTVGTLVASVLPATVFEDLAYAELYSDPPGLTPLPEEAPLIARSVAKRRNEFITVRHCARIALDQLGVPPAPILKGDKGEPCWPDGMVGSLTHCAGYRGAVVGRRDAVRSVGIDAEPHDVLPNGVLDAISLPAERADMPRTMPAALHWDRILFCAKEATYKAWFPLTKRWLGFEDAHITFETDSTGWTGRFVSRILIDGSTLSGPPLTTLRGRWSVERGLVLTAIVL
UniProt P07550, sequence (whole entry, looked up): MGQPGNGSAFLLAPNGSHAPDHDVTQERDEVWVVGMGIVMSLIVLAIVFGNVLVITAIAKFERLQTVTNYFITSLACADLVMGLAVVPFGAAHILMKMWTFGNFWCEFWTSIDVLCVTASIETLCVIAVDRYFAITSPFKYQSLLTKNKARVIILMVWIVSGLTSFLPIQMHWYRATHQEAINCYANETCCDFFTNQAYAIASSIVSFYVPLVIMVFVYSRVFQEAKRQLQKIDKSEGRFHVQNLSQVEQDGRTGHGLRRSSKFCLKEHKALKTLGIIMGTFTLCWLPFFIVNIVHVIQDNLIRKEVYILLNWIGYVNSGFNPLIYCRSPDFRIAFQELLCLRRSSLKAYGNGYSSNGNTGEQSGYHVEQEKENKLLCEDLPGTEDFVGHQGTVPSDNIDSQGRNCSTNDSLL
UniProt P36894, sequence (whole entry, looked up): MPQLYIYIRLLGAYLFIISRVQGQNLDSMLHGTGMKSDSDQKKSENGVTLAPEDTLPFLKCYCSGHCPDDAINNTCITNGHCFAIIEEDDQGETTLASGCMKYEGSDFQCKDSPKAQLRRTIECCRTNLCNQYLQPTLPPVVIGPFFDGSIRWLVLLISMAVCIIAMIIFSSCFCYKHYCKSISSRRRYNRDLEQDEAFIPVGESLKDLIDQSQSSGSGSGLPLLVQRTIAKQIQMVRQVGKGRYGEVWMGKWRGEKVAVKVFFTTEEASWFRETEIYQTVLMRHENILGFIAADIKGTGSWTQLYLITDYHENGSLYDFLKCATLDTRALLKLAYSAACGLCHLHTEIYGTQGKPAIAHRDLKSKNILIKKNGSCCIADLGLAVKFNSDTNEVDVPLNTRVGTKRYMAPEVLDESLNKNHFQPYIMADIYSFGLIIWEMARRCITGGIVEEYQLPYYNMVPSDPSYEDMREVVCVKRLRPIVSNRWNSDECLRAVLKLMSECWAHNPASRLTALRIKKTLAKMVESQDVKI
UniProt P36897, sequence (whole entry, looked up): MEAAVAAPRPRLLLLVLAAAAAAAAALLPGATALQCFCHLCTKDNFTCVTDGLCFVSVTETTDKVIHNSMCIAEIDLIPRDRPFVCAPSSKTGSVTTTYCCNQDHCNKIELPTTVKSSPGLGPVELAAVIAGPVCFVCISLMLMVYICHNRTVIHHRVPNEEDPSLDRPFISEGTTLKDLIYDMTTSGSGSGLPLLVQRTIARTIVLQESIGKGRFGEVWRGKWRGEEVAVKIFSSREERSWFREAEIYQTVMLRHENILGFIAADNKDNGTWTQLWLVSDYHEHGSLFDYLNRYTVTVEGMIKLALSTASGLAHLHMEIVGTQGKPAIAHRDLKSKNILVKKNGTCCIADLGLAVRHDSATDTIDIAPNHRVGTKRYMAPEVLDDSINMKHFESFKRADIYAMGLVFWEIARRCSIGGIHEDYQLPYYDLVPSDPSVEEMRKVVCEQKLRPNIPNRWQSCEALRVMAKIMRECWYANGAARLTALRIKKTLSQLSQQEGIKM
UniProt Q9BX84, sequence (whole entry, looked up): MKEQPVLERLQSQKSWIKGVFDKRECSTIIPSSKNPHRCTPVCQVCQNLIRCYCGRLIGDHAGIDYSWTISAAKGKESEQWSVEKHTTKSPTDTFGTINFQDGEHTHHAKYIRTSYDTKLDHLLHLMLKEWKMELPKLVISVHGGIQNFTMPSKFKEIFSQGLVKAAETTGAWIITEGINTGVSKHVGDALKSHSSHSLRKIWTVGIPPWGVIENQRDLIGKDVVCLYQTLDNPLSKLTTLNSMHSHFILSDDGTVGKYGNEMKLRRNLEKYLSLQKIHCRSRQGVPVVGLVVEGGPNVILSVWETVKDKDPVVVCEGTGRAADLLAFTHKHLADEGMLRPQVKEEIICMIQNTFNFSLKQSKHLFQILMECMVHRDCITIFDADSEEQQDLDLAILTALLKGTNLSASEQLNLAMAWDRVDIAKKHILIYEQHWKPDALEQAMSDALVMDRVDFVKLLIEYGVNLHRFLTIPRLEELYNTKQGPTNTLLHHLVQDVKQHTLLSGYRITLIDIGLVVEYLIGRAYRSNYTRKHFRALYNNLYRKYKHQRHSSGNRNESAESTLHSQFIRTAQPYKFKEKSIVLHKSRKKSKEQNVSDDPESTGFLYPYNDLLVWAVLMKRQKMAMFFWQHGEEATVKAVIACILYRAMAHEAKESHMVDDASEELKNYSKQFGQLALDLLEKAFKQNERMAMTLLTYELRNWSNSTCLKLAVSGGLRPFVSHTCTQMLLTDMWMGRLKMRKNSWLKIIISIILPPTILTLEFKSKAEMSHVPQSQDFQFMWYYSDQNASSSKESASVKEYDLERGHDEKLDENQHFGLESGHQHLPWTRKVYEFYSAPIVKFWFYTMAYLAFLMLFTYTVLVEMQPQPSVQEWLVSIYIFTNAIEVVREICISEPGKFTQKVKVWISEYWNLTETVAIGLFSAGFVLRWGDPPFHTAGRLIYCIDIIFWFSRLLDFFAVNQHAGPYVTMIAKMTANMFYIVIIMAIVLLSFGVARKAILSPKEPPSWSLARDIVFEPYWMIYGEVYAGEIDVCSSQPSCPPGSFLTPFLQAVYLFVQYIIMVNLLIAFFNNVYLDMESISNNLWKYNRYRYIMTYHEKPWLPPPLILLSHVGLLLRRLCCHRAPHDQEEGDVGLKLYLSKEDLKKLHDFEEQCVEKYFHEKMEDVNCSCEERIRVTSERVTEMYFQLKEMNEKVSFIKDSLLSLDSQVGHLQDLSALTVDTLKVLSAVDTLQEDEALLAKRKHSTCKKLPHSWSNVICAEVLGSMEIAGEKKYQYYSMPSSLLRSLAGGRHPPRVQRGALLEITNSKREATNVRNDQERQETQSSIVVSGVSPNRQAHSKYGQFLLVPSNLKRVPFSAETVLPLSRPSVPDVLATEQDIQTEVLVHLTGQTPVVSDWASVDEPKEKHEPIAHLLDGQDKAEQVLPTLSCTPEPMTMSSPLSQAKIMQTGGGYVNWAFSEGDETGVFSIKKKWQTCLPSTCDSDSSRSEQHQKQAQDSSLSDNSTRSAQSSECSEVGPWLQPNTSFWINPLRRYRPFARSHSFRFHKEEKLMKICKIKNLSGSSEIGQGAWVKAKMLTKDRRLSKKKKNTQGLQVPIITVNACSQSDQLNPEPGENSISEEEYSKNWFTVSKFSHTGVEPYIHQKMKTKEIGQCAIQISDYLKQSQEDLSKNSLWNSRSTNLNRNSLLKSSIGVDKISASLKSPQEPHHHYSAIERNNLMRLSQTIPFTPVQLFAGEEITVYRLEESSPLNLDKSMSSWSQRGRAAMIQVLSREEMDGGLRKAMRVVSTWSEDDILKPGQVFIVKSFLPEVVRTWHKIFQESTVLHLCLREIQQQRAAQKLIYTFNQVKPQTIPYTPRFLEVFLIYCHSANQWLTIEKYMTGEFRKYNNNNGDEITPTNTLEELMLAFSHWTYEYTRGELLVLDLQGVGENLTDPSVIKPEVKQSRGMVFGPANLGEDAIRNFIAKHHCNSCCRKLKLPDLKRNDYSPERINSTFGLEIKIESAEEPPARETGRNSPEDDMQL
UniProt P21452, sequence (whole entry, looked up): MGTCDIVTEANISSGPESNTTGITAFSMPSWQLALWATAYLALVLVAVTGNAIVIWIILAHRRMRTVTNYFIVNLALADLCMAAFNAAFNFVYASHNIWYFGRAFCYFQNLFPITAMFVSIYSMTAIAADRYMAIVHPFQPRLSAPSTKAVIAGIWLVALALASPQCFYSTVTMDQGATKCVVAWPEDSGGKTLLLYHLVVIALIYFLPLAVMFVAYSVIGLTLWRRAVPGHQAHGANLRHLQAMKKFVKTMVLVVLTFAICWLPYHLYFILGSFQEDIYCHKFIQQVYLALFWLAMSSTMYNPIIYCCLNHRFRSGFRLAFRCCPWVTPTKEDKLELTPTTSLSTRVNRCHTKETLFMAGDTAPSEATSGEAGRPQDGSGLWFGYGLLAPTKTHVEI
UniProt O60741, sequence (whole entry, looked up): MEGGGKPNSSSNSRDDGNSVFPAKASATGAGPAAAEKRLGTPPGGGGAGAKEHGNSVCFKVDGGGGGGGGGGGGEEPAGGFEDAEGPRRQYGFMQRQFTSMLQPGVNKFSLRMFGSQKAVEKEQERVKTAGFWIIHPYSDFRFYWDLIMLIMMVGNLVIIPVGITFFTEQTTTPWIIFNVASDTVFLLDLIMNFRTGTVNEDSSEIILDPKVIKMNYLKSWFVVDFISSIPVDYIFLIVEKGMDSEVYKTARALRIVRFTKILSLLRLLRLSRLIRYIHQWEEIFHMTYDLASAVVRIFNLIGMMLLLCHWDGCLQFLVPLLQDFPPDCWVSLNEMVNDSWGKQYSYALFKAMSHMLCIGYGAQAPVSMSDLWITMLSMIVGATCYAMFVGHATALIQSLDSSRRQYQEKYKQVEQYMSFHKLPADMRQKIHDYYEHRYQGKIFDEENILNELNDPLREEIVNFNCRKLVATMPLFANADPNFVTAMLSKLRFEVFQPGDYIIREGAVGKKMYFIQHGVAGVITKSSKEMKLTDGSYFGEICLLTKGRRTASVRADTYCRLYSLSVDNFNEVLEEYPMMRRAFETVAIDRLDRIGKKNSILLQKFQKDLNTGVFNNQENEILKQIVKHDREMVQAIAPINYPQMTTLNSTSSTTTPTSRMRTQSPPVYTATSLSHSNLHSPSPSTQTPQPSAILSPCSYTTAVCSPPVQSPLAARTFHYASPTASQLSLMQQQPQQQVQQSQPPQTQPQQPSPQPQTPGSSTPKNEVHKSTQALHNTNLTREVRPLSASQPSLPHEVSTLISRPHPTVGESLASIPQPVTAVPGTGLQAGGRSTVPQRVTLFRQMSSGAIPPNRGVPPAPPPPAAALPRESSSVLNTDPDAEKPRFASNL

COc1ncccc1-c1cnn2ccc(N3CCN(C(=O)OC(C)C)CC3)nc12 gave a remaining binding of 64% (TGFBR1 (Homo sapiens, UniProt P36897); binding, competition with immobilised ligand; 1 µM).
For Nc1ncc(-c2nc(N3CCOCC3)nc(N3CCOCC3)n2)c(C(F)F)n1, the remaining binding was 0% (PIK3CA (Homo sapiens, UniProt P42336, Q546K); binding, competition with immobilised ligand; 10 µM).
With CSc1nc2ccc(Cl)cc2c(=O)n1Cc1ccc[n+](C)c1 the IC50 was greater than 100000 nM (4'-phosphopantetheinyl transferase PptT; enzyme activity, inhibitor, FP).
The inhibition of CCCN1C[C@H](CSC)C[C@@H]2c3cccc4[nH]cc(c34)C[C@H]21 is reported as 9.8% (Potassium/sodium hyperpolarization-activated cyclic nucleotide-gated channel 1 (Homo sapiens, UniProt O60741); ion current, inhibitor; 30 µM).
The remaining binding of CCN(CC)CCCC[C@H](NC(=O)[C@H](CC(C)C)NC(=O)[C@H](C)NC(=O)[C@H](Cc1ccccc1)NC(=O)c1ccc(C(C)(C)C)cc1)C(=O)N[C@@H](CO)C(=O)OC is reported as 24.6% (TACR2 (Homo sapiens, UniProt P21452); ligand displacement, radioligand; 10 µM).
O=c1c2cc(Cl)c(CO)cc2[nH]c(=S)n1Cc1cncnc1 has an IC50 of 2050 nM (4'-phosphopantetheinyl transferase PptT; enzyme activity, inhibitor, FP).
For CC(C)CC(=O)OC[C@H]1O[C@@](C#N)(c2ccc3c(N)ncnn23)[C@H](O)[C@@H]1O, the inhibition was 4% (ADRB2 (Homo sapiens, UniProt P07550); cell-free assay; 20 µM).
With [2H]c1c([2H])c([C@]2([2H])CCCN2C(=O)C(C)(C)Oc2ccc3cn[nH]c3c2)c([2H])c([2H])c1C([2H])([2H])[2H] the remaining binding was 65% (BMPR1A (Homo sapiens, UniProt P36894); binding, competition with immobilised ligand; 1 µM).
c1cncc([C@@H]2CCCN2)c1 gave an inhibition of 0.12% (ADRB3 (Homo sapiens, UniProt P13945); ligand displacement; 50 µM).
For Cc1nn(C)cc1-c1nc2c(N3CCN(Cc4ccc(Cl)cc4)CC3)c(Cl)cnc2[nH]1, the remaining binding was 100% (TRPM6 (Homo sapiens, UniProt Q9BX84); binding, competition with immobilised ligand; 1 µM).

Excerpt of the above:
COc1ncccc1-c1cnn2ccc(N3CCN(C(=O)OC(C)C)CC3)nc12 gave a remaining binding of 64% (TGFBR1 (Homo sapiens, UniProt P36897); binding, competition with immobilised ligand; 1 µM).
